{"data": "Experimental data from different studies", "note": "Lines come from different studies, so protocols differ."}
{"Structure (SMILES)": "CN1CCN(c2cccc3c2CCN(C(=O)/C=C/c2c(-n4cnnn4)ccc(Cl)c2F)[C@@H]3C(=O)Nc2ccc(C(=O)O)cc2)C(=O)C1", "system": "healthy human subjects", "setting": "intravenous infusion, 10 mg/h, 2 h", "quantity": "subjects with serious adverse event", "result": "0%"}
{"Structure (SMILES)": "C[C@H]1CN(C(=O)CC#N)[C@]12CCN(c1ncnc3[nH]ccc13)C2", "system": "healthy human", "setting": "oral, 3 mg single", "quantity": "subjects with Dizziness", "result": "0%"}
{"Structure (SMILES)": "CC(C)(C(=O)N1CCOc2c(C#N)cncc2C1)C(F)F", "assay": "refers to: ALT increased", "system": "human", "setting": "oral, 20 mg twice daily, 14 days, multiple ascending dose", "quantity": "subjects with adverse event", "result": "0%"}
{"Structure (SMILES)": "C[C@@H](Oc1ccc(S(C)(=O)=O)cc1C(=O)N1C[C@@H]2C[C@]2(c2cc(C(F)(F)F)on2)C1)C(F)(F)F", "system": "human", "setting": "oral, 25 mg", "quantity": "subjects with abdominal discomfort", "result": "16.7%"}
{"Structure (SMILES)": "CNC(=O)c1ccc(-c2cnc3ncc(Cc4ccc5ncccc5c4)n3n2)cc1F", "system": "healthy human subjects", "setting": "oral, 400 mg, Nausea, grade 3, all causality, with: rifampicin 600 mg/day", "quantity": "subjects with adverse event", "result": "0%"}
{"Structure (SMILES)": "C[C@@H](c1nc(-c2ccc(C#N)cc2)cs1)[C@](O)(Cn1cncn1)c1cc(F)ccc1F", "assay": "any adverse event", "system": "human", "setting": "oral, dose not given, with: ethinyl estradiol/norethindrone", "quantity": "subjects with adverse event", "result": "26.1%"}
{"Structure (SMILES)": "Cc1cc(Nc2cc3ncccc3c(N[C@@H]3C[C@H]4CC[C@@H](C3)N4CCC#N)n2)n[nH]1", "system": "healthy human", "setting": "oral, 1000 mg single dose, 2 weeks", "quantity": "subjects with epistaxis", "result": "0%"}
{"Structure (SMILES)": "Cc1cc(-c2nccc3c2ccn3CC(=O)Nc2ccc(-c3cnccn3)cn2)ccn1", "system": "human", "setting": "5 mg once daily, multiple ascending dose", "quantity": "subjects with Costochondritis adverse event", "result": "0%"}
{"note": "For quick reference, copied from above:"}
{"Structure (SMILES)": "CC(C)(C(=O)N1CCOc2c(C#N)cncc2C1)C(F)F", "assay": "refers to: ALT increased", "system": "human", "setting": "oral, 20 mg twice daily, 14 days, multiple ascending dose", "quantity": "subjects with adverse event", "result": "0%"}
